Published values gathered from unrelated publications.
Protocols differ between the studies behind these lines.
Target: Cyclin-dependent kinase-like 3 (CDKL3, Homo sapiens, UniProt Q8IVW4)

| Compound | assay | setting | how to read | endpoint | value |
| --- | --- | --- | --- | --- | --- |
| CC(C)=CC1OC(C)(C)C2C=C3C(=O)C(Cl)=CC(O)C3C3C(O)C4OC4C(=O)C132 (stereo not drawn) | cell-free assay, competition with immobilised ligand | 10 µM | – | remaining binding | 93% |
| COc1c(Cl)cccc1Nc1c(-c2ccncc2C#C[C@@]2(C)CCCN2C(=O)/C=C/CN(C)C)[nH]c2c1C(=O)NCC2 | binding, competition with immobilised ligand | 3 µM | – | remaining binding | 100% |
| COc1cc(Nc2nccc(-c3cnn4nc(OC)ccc34)n2)cc(C(F)(F)F)c1 | binding, competition with immobilised ligand | 1 µM | – | remaining binding | 78% |
| Nc1ncc2c(n1)-c1c([nH]c3ccc(C4=CCOCC4)cc13)CCC2 | binding, competition with immobilised ligand | 1 µM | – | remaining binding | 100% |
| Cc1ccc(-c2c(/C=C(\C#N)C(=O)NC(C)C)n(CCCO)c3ncnc(N)c23)cc1 | cell-free assay, competition with immobilised ligand | 1 µM | – | remaining binding | 100% |
| CNC(=O)C[C@H](Cc1ccc(C#N)cc1)NC(=O)c1cc(-c2ccc(CN[C@H](C)c3ccc(C)cc3)o2)ccc1Cl | enzyme activity, inhibitor | 1 µM | – | activity vs control | 104% |
| CNC(=O)C1CCN(c2cc(C)c(F)cc2NC(=O)c2ccc(-c3cc(O)ccc3C)c(C)c2)CC1 | binding, competition with immobilised ligand | 1 µM | – | remaining binding | 96% |
| C=CC(=O)N1CCCC(n2c(=O)c3ncccc3n(Cc3ccc(Oc4ccccc4)cc3)c2=O)C1 (stereo not drawn) | cell-free assay, competition with immobilised ligand | 1 µM | – | remaining binding | 68% |
| CN1CC[C@@H](COc2cnc(C#N)cc2-c2ccn3nc(NC(=O)C4CC4)cc3c2)C1 | enzyme activity, inhibitor | 1 µM | – | inhibition | 10% |
| CNC1C[S+]2CC[S+]3CC[S+](C1)[Ru-4]321([N]=C=S)[n]2c3ccc(OC)cc3c3c4c(c5cc(F)c[n+]1c5c32)C(=O)NC4=O (stereo not drawn) | KinomeScan | 0.1 µM | baseline: untreated | remaining binding | 82% |
| Cc1cnc2nc1Nc1cccc(c1)COC/C=C/COCc1cc(ccc1OCCN1CCOCC1)N2 | binding | 0.1 µM | – | remaining binding | 100% |
| COc1cc(Nc2nc(C)cc(-c3cnn4nc(OC)ccc34)n2)cc(C(F)(F)F)c1 | inhibitor | 1 µM | baseline: control | remaining activity | 94% |
| O=C(Cc1ccc(OCc2ccccc2)cc1)NC1(C(=O)O)CCN(C(=O)c2ccc(-c3cccc(Cl)c3)cc2)CC1 | enzyme activity, inhibitor | 10 µM | – | activity vs control | 98% |
| C=CC(=O)N1CCc2ccc(-n3c(=O)ccc4cnc5ccc(-c6cnn(C)c6)cc5c43)cc21 | KINOMEscan | 1 µM | baseline: DMSO control | remaining binding | 89% |
| CCN1CCN(Cc2ccc(C(=O)Nc3ccc(C)c(NCc4cnc5[nH]ccc5c4OC)c3)cc2C(F)(F)F)CC1 | binding, competition with immobilised ligand | 1 µM | – | remaining binding | 71% |

Some of these lines once more:
| Compound | assay | setting | how to read | endpoint | value |
| --- | --- | --- | --- | --- | --- |
| Cc1ccc(-c2c(/C=C(\C#N)C(=O)NC(C)C)n(CCCO)c3ncnc(N)c23)cc1 | cell-free assay, competition with immobilised ligand | 1 µM | – | remaining binding | 100% |
| Cc1cnc2nc1Nc1cccc(c1)COC/C=C/COCc1cc(ccc1OCCN1CCOCC1)N2 | binding | 0.1 µM | – | remaining binding | 100% |
